# Measurements from different studies.
# PPARA ligand-binding domain: Peroxisome proliferator-activated receptor alpha, ligand-binding domain (PPARA, Homo sapiens, UniProt Q07869)
# Chain of UniProt Q07869 (whole entry, looked up): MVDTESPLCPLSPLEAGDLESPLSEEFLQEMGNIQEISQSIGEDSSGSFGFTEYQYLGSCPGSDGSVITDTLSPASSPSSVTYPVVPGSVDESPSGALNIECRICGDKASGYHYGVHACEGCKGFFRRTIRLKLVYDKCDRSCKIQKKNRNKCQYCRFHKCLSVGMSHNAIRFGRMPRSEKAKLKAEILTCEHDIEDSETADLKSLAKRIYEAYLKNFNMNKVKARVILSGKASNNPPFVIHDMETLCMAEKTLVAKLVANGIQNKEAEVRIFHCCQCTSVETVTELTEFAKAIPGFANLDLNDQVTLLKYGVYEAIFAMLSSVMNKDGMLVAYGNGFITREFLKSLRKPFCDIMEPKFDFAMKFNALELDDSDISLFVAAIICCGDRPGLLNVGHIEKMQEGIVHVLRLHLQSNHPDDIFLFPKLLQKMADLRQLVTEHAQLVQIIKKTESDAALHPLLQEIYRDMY
# GBA2: Beta-glucosidase (GBA2, Homo sapiens, UniProt Q9HCG7)
# Chain of UniProt Q9HCG7 (whole entry, looked up): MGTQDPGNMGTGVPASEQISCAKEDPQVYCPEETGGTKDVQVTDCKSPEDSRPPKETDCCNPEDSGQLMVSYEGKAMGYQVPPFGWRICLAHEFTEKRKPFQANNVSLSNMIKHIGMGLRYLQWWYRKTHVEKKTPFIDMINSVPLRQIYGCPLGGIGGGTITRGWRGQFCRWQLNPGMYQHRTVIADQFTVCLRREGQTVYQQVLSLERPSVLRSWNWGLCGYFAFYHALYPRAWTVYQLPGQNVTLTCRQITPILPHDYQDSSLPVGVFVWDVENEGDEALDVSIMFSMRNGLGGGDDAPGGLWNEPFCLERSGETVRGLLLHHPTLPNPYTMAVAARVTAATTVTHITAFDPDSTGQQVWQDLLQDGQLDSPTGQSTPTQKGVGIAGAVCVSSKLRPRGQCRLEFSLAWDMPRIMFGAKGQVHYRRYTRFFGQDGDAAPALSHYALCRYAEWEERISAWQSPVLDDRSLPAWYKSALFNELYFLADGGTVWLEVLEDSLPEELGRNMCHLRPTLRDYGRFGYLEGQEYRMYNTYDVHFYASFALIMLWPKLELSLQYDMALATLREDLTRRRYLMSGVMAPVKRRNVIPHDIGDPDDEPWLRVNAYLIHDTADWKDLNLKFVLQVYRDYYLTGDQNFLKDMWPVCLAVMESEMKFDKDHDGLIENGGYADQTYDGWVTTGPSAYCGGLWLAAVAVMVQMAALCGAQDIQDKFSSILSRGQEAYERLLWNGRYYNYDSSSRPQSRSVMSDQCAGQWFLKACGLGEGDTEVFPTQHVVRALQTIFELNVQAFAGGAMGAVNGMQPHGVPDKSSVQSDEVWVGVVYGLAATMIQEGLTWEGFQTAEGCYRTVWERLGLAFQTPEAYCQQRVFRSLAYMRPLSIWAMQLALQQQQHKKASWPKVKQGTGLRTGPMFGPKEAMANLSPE
# PIK3CG: Phosphatidylinositol 4,5-bisphosphate 3-kinase catalytic subunit gamma isoform (PIK3CG, Homo sapiens, UniProt P48736)
# Chain of UniProt P48736 (whole entry, looked up): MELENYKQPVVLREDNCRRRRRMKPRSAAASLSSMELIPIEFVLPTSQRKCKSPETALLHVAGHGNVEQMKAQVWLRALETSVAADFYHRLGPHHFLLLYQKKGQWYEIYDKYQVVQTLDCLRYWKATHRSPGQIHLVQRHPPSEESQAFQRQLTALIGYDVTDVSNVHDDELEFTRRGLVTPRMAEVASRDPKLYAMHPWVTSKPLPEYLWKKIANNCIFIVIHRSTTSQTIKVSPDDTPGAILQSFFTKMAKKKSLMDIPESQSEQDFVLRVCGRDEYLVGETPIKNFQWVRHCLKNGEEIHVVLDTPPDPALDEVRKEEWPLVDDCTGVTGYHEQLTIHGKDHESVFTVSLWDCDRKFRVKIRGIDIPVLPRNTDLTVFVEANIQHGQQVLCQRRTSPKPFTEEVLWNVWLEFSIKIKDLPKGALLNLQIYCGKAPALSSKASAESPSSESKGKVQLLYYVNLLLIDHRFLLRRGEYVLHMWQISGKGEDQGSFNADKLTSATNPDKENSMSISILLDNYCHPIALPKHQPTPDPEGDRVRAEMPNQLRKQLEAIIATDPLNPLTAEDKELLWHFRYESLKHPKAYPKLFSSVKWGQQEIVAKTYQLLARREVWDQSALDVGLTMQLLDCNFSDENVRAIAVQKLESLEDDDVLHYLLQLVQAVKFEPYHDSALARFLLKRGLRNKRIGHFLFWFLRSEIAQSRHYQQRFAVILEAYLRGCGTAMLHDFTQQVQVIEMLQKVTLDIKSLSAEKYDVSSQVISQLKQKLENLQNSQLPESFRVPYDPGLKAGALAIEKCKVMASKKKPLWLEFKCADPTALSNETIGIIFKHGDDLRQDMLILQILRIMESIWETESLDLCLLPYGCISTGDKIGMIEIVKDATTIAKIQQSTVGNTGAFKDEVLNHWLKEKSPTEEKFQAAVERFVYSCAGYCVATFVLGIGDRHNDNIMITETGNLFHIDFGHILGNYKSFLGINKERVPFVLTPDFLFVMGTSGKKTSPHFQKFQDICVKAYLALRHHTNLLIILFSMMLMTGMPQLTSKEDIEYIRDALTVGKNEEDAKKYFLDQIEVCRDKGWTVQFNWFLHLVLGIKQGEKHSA
# Chymotrypsinogen A: Chymotrypsinogen A (Bos taurus, UniProt P00766)
# Chain of UniProt P18405 (whole entry, looked up): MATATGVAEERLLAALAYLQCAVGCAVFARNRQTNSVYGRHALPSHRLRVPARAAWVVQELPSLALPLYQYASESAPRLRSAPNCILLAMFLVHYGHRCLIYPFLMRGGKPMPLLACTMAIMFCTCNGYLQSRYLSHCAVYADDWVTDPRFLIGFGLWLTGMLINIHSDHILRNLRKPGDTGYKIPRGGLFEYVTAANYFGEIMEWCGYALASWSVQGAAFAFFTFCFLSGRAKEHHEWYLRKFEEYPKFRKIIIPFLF
# Chain of UniProt P41279 (whole entry, looked up): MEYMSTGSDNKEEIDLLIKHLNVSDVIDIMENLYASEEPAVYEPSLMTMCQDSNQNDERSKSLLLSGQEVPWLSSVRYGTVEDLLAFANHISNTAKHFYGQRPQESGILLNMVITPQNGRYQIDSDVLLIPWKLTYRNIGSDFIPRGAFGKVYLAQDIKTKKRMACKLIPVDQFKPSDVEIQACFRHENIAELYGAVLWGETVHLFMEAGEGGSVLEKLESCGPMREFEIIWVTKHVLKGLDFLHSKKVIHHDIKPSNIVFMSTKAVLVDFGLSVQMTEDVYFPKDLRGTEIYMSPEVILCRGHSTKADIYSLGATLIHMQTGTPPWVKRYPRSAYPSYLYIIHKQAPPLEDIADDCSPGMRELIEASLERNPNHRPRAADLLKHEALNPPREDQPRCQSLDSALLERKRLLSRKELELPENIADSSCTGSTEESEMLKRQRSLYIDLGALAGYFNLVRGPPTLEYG
# Chain of UniProt Q02750 (whole entry, looked up): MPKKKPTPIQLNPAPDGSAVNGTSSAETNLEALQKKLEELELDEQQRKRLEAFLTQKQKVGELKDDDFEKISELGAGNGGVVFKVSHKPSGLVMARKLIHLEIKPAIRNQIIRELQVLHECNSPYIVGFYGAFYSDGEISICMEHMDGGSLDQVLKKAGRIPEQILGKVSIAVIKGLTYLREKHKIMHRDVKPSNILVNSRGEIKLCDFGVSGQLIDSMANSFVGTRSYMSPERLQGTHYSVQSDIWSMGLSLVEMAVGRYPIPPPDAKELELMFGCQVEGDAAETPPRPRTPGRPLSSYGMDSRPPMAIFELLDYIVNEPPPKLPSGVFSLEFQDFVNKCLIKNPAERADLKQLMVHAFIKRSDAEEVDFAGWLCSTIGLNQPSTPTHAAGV
# Chain of UniProt P07949 (whole entry, looked up): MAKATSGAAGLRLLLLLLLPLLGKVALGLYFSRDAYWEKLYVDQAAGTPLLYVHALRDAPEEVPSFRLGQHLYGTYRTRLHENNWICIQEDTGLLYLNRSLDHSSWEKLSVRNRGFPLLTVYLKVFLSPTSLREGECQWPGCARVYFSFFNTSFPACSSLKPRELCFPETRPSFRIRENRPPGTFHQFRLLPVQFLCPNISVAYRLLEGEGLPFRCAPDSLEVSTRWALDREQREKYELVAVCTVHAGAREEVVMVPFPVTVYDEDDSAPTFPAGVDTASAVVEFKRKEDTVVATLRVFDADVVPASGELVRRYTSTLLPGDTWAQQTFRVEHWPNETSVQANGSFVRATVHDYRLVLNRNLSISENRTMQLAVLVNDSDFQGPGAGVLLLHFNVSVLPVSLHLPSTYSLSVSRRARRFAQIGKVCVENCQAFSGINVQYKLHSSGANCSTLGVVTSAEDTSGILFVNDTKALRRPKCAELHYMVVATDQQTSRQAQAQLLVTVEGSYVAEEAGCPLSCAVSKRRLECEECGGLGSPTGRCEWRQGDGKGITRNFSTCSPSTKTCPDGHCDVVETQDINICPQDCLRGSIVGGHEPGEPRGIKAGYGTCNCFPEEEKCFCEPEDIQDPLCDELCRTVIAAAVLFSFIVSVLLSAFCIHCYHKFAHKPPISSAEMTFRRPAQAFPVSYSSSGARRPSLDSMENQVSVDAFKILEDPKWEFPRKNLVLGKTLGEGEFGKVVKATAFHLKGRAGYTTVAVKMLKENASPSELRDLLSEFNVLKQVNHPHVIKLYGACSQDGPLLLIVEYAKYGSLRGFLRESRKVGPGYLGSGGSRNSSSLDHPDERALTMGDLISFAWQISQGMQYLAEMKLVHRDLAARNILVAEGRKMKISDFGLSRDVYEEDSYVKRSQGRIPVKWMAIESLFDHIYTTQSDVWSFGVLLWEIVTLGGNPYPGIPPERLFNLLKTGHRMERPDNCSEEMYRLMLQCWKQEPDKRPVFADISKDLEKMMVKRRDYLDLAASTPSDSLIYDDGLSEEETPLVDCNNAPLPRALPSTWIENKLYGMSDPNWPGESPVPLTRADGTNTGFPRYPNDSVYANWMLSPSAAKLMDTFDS
Structure (SMILES),target,test,test system,setting,IC50
CC(C)c1ccc(COc2ccc(Cl)cc2NC(=O)Nc2cnc(C#N)cn2)cc1,"Serine/threonine-protein kinase Chk1 (CHEK1, Homo sapiens, UniProt O14757)","enzyme activity, inhibitor",,,6.05 µM
COc1cc(/C=C/C(=O)Oc2cc(C(F)(F)F)cc(C(F)(F)F)c2)ccc1O,"3-oxo-5-alpha-steroid 4-dehydrogenase 1 (SRD5A1, Homo sapiens, UniProt P18405)","enzyme activity in cells, inhibitor",,,8.05 µM
Cc1c(Cc2cccc(OC(C)(C)C(=O)O)c2)c2ccc(C(=O)N[C@@H](C)c3cccc(Br)c3)cc2n1C,PPARA ligand-binding domain,"reporter gene, luciferase reporter","HEK293T, Gal4-PPARα LBD",,60.6 µM
OC[C@@H]1[C@@H](O)[C@H](O)[C@@H](O)CN1CCCCCOCc1ccc(-c2ccccc2)c(C(F)(F)F)c1,GBA2,"inhibitor, 4MU-β-D-glucopyranoside",HEK293T homogenates overexpressing GBA2,,8e-05 µM
CCN(CC)CC(=O)Nc1cccc(-n2cc(-c3ccc4ccc(-c5cn(-c6cccc(NC(=O)CN(CC)CC)c6)nn5)cc4c3)nn2)c1,"Mitogen-activated protein kinase kinase kinase 8 (MAP3K8, Homo sapiens, UniProt P41279)","enzyme activity, inhibitor",,,> 10 µM
Cc1nn(-c2cccc(N)c2)c(=O)c2cnc(Nc3ccc(N4CCNCC4)cc3)nc12,"Dual specificity mitogen-activated protein kinase kinase 1 (MAP2K1, Homo sapiens, UniProt Q02750)",SelectScreen kinase,,,> 10 µM
Cc1nc(Nc2ccc3c(c2)/C(=C/c2cn(C)c4ccccc24)C(=O)N3C)c2ccccc2n1,PIK3CG,"enzyme activity, inhibitor, ADP detection",,,0.212 µM
CCOc1cc(CN2CC3(CC(N4CCC(C(=O)O)CC4)=NO3)C2)cc(OCC)c1-c1ccc(F)cc1,"Somatostatin receptor type 5 (SSTR5, Homo sapiens, UniProt P35346, I202A)","cAMP level, antagonist, GloSensor",AD293,"I202A mutant, bandwidth 5.39, added: CST17 EC80 and forskolin",1.58 µM
Cc1c(Cc2cc(Cl)cc(O[C@@H](C)C(=O)O)c2)c2ccc(C(=O)N[C@@H](C)c3ccc(C(C)(C)C)cc3)cc2n1CC1CCC1,PPARA ligand-binding domain,"reporter gene, luciferase reporter","HEK293T, Gal4-PPARα LBD",,> 100 µM
O=C1C(Nc2ccc(Cl)cc2)c2ccccc2N1Cc1ccccc1 (stereo not drawn),PIK3CG,"enzyme activity, inhibitor, ADP detection",,,0.00951 µM
Cc1cnc2nc1Nc1cc(F)cc(c1)COC/C=C/COCc1cc(ccc1OCCN1CCCC1)N2,"Tyrosine-protein kinase JAK2 (JAK2, Homo sapiens, UniProt O60674)","enzyme activity, inhibitor, FRET",,,0.00589 µM
O=C1CC(c2ccccc2)N1S(=O)(=O)Cc1ccccc1 (stereo not drawn),Chymotrypsinogen A,"enzyme activity, inhibitor, fluorescence",,,4.3 µM
Cc1cc(NC2CCN(C)CC2)ccc1-c1cc2c(N3CCC[C@H](C(=O)NCc4ccc(OC(F)(F)F)cc4)C3)ncnc2[nH]1,"Proto-oncogene tyrosine-protein kinase receptor Ret (RET, Homo sapiens, UniProt P07949)","enzyme activity, inhibitor, mobility shift",,,0.531 µM
O=C(COc1ccccc1NC(=O)C(C(F)(F)F)C(F)(F)F)NCC1CC1,Chymotrypsinogen A,"enzyme activity, inhibitor, fluorescence",,,66 µM
COc1ccc(-c2ccc(COCCCCCN3C[C@H](O)[C@@H](O)[C@H](O)[C@H]3CO)cc2)cc1,GBA2,"inhibitor, 4MU-β-D-glucopyranoside",HEK293T homogenates overexpressing GBA2,,0.01 µM
Cc1c(Cc2ccc(O[C@H](C)C(=O)O)c(Cl)c2)c2ccc(C(=O)N[C@@H](C)c3ccc(C(C)(C)C)cc3)cc2n1C,PPARA ligand-binding domain,"reporter gene, luciferase reporter","HEK293T, Gal4-PPARα LBD",,3.35 µM
OC[C@@H]1[C@@H](O)[C@H](O)[C@@H](O)CN1CCCCCOCc1ccccc1,GBA2,"inhibitor, 4MU-β-D-glucopyranoside",HEK293T homogenates overexpressing GBA2,,0.001 µM
C#CCNC(=O)c1ccc(S(=O)(=O)N[C@@H](CCCCNC(C)=S)C(=O)N[C@@H](CCCNC(=N)N)C(=O)N[C@@H](CC2CCCCC2)C(N)=O)cc1,"NAD-dependent protein deacetylase sirtuin-2 (SIRT2, Homo sapiens, UniProt Q8IXJ6)","enzyme activity, inhibitor, fluorescence",,,0.61 µM
